Measurements from different studies.
Each line is one published result; not all experiments were run side by side. “And” joins repeats or separate records; there may be more than shown. Numbers after ± are the reported error.
T1: RNA aptamer; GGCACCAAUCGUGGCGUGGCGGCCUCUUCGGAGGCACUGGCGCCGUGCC
UniProt Q64663, sequence (whole entry, unmodified, looked up): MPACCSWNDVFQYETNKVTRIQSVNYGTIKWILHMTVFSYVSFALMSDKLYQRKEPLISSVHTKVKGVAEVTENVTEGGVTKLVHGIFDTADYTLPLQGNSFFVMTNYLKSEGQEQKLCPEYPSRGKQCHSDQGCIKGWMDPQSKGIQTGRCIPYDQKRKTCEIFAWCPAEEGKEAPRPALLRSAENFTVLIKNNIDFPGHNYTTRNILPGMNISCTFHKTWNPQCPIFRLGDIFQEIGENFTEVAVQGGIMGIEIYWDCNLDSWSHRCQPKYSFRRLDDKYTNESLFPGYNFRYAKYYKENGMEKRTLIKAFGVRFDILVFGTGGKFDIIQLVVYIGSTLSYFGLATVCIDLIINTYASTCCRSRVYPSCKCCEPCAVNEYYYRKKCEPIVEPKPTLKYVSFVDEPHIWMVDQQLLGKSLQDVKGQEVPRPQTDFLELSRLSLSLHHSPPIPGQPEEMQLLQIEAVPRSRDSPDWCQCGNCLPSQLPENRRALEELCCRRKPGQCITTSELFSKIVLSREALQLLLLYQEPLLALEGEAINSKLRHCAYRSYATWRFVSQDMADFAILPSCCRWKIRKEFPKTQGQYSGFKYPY
UniProt P51575, sequence (whole entry, unmodified, looked up): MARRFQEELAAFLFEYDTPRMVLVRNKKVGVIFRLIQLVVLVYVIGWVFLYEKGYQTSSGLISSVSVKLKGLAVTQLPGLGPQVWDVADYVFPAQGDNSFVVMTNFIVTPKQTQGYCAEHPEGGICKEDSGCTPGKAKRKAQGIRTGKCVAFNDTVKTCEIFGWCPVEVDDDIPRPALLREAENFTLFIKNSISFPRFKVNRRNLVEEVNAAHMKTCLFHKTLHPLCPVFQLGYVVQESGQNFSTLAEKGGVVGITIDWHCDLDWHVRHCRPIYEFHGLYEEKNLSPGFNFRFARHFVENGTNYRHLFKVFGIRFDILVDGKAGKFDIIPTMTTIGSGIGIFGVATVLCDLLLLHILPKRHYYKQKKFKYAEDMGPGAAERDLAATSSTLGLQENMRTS
UniProt P52564, sequence (whole entry, looked up): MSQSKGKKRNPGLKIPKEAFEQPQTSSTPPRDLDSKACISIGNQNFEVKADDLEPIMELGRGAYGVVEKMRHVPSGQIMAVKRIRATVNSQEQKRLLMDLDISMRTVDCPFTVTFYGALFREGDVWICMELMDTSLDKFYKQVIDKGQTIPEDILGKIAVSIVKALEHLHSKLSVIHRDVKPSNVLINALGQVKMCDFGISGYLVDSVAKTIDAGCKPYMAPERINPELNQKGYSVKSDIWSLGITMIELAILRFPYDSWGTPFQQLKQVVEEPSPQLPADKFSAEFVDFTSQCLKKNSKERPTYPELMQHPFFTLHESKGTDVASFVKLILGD
UniProt Q8WUM0, sequence (whole entry, looked up): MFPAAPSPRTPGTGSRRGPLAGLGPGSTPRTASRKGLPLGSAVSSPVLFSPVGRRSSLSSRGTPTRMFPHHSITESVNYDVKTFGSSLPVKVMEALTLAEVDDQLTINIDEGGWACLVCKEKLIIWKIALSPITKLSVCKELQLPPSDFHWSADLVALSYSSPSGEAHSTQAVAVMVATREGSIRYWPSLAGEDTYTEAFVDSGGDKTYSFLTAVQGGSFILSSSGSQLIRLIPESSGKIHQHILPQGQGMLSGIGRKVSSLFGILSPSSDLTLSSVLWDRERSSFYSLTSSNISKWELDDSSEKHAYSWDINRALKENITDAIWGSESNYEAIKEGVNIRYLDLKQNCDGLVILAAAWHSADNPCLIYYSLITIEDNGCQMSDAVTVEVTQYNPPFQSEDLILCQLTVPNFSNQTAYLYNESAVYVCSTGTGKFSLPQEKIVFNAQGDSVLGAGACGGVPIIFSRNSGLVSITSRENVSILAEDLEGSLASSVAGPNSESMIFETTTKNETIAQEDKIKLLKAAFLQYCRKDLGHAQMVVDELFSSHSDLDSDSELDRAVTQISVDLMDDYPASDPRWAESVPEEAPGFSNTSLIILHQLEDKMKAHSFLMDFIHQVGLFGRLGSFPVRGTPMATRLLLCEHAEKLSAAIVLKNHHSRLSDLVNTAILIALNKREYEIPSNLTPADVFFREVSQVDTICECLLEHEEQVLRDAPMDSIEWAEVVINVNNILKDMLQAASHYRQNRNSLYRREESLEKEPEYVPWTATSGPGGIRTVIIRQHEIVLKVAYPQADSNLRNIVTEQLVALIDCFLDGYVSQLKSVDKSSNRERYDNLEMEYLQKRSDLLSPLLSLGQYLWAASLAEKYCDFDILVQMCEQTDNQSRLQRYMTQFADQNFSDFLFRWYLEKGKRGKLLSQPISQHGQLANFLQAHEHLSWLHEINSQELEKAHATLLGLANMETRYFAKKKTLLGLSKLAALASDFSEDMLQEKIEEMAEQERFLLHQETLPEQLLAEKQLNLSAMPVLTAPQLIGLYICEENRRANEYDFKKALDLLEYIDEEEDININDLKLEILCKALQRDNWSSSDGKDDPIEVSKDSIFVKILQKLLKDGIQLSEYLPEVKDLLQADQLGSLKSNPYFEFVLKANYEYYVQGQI
UniProt Q8BTI9, sequence (whole entry, looked up): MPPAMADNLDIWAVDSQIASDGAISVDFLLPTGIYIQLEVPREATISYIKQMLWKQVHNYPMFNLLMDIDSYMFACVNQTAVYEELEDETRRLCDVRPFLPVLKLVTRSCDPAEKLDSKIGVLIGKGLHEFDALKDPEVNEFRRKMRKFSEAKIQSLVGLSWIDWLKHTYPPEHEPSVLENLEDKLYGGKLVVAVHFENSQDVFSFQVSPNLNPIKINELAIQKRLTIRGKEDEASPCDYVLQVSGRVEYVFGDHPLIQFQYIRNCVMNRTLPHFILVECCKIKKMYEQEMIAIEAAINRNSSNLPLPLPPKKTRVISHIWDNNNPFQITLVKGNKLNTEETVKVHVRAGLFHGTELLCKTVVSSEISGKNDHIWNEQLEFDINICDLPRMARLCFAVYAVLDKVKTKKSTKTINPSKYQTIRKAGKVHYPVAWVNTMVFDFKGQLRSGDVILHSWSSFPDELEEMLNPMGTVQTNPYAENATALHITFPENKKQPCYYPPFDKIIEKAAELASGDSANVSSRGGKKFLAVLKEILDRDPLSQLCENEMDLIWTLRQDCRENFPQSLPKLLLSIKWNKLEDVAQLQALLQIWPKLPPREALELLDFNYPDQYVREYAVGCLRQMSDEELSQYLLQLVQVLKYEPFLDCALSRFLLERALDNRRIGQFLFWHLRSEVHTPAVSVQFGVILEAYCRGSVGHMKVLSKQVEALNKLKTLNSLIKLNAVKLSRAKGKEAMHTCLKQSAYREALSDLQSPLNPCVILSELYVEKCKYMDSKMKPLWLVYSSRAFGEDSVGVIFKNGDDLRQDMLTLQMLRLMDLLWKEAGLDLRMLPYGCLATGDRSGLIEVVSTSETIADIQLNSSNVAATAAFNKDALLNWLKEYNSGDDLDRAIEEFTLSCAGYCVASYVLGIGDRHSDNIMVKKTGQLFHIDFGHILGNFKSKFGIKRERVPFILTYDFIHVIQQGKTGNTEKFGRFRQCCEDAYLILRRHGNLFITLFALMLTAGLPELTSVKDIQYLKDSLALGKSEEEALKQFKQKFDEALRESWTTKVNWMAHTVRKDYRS

For CO/N=C(\C(=O)N[C@@H]1C(=O)N2C(C(=O)O)=C(COC(C)=O)CS[C@H]12)c1csc(N)n1, the Km was 210 ± 8.9 µM (beta-lactamase RAD-1 (Riemerella anatipestifer); substrate, continuous spectrophotometric hydrolysis; 30 °C).
CC[C@H](C)[C@H](NC(=O)[C@H](Cc1ccccc1)NC(=O)[C@H](CCC(=O)O)NC(=O)[C@H](CCCNC(=N)N)NC(=O)[C@H](C)NC(=O)[C@H](C)NC(=O)[C@H](CCC(N)=O)NC(=O)[C@H](CCC(=O)O)NC(=O)[C@H](CCC(=O)O)NC(=O)[C@H](CC(C)C)NC(=O)[C@H](Cc1ccc(O)cc1)NC(=O)[C@H](CO)NC(=O)[C@H](CO)NC(=O)[C@@H](NC(=O)[C@H](CC(=O)O)NC(=O)[C@H](CO)NC(=O)[C@@H](NC(=O)[C@H](Cc1ccccc1)NC(=O)[C@@H](NC(=O)CNC(=O)[C@H](CCC(=O)O)NC(=O)[C@H](C)NC(=O)CCc1cnc[nH]1)[C@@H](C)O)[C@@H](C)O)C(C)C)C(=O)N[C@@H](C)C(=O)N[C@@H](Cc1c[nH]c2ccccc12)C(=O)N[C@@H](CC(C)C)C(=O)N[C@H](C(=O)N[C@@H](CCCNC(=N)N)C(=O)NCC(=O)N[C@@H](CCCNC(=N)N)C(=O)N[C@@H](CCCCNC(=O)COCCOCCNC(=O)COCCOCCNC(=O)CC[C@H](NC(=O)CCCCCCCCCCCCCCCCC(=O)O)C(=O)O)C(=O)NCC(=O)NCC(=O)N[C@@H](CO)C(=O)N[C@@H](CCCCNC(=O)[C@H](CCCCNc1c(NCCCCCN(O)C(=O)CCC(=O)NCCCCCN(O)C(=O)CCC(=O)NCCCCCN(O)C(C)=O)c(=O)c1=O)Nc1c(NCCCCCN(O)C(=O)CCC(=O)NCCCCCN(O)C(=O)CCC(=O)NCCCCCN(O)C(C)=O)c(=O)c1=O)C(=O)O)C(C)C — result for “fold potency loss”: 1.2 (Glucagon-like peptide 1 receptor (GLP1R, Homo sapiens, UniProt P43220); agonist, CRE luciferase reporter; BHK cells; Zr-loaded DFO conjugate, with: 1% HSA; baseline: parent peptide).
For O=C(Cc1cccnc1)Nc1ccc(C2CCCCC2)cc1, the hepatic clearance was 3.9 mL/min/kg (human liver microsomes; 1 µM, without NADPH).
Nc1ncnc2c1ncn2[C@@H]1O[C@H](COP(=O)(O)OP(=O)(O)OP(=O)(O)O)[C@@H](O)[C@H]1O has a normalized current of 0.0171 and 0.0283 and 0.024 (P2X purinoceptor 7 (P2rx7, Rattus norvegicus, UniProt Q64663, Q143A/R125A); ion current, agonist, two-electrode voltage clamp; Xenopus laevis oocytes; 19 µM; baseline: highest concentration response).
The Kd of CN(CCO)c1ccc(/C=C(\C#N)c2ccc(C#N)cc2)cc1 is reported as 495 nM (T1, RNA aptamer; fluorescence titration, Hill fit; apparent).
The remaining activity of COc1cc(-c2cncc3c2CN(C)Cc2cc(N4CCNCC4)ccc2-3)cc(OC)c1OC is reported as 88% (Phosphatidylinositol 4,5-bisphosphate 3-kinase catalytic subunit beta isoform, with p85 alpha (Pik3cb, Mus musculus, UniProt Q8BTI9); kinase activity; 1 µM, p110b/p85a)(m mouse, with: ATP 10 µM; baseline: DMSO).
NC(=O)CCNC(=O)c1ccc([C@H]2[C@@H](F)[C@@H](F)C[C@@H](F)[C@H]2F)cc1 gave a hepatic clearance of 14 mL/min/kg (liver microsome stability; mouse liver microsomes; 1 µM).
For O=S(=O)([O-])[O-].[Mn+2], the kcat was 0.3 s⁻¹ (alternative ancestral dye-decolorizing peroxidase; peroxidase activity, substrate, steady-state kinetics; 25 °C, pH 3 ABTS, 4 others).
O=C(COP(=O)(O)O)[C@@H](O)[C@H](O)[C@H](O)COP(=O)(O)O: “thermal stability ratio” 0.589 (Nuclear pore complex protein Nup133 (NUP133, Homo sapiens, UniProt Q8WUM0); thermal proteome profiling, item: NUP133; HepG2 cell lysate; concentration not given, 57 over 37 °C, mean; baseline: compound over control).
For O=C(O)c1ccc(Nc2ncc3c(n2)-c2ccc(Cl)cc2C(c2c(F)cccc2F)=NC3)cc1, the remaining activity was 90% (BTK(h); kinase activity; 1 µM).
Nc1ncnc2c1ncn2[C@@H]1O[C@H](COP(=O)(O)CP(=O)(O)OP(=O)(O)O)[C@@H](O)[C@H]1O gave a calcium influx of 95.9% and 88.1% and 93% and 94.5% (P2X purinoceptor 1 (P2RX1, Homo sapiens, UniProt P51575, S286A); calcium influx; 3.16 µM; baseline: ionomycin response).
CC[C@@H]1[C@H](F)C(=O)N[C@@H]1COc1nccc2cc(C(N)=O)c(OC)cc12 has an inhibition of 10.3% (Dual specificity mitogen-activated protein kinase kinase 6 (MAP2K6, Homo sapiens, UniProt P52564); ATP-site probe binding, ActivX profiling; THP-1 cell lysate; 0.01 mM, Lys1 site).

Some of these lines once more:
For O=S(=O)([O-])[O-].[Mn+2], the kcat was 0.3 s⁻¹ (alternative ancestral dye-decolorizing peroxidase; peroxidase activity, substrate, steady-state kinetics; 25 °C, pH 3 ABTS, 4 others).
